Measured values from different studies.
Each line is one published result; not all experiments were run side by side. ± marks the error that the study gave. Bridges are numbered along the chain shown (N, C = ends). Where no end group is shown, it is not given here.
B1: UGT1A9 (Homo sapiens, UniProt O60656); chain GKLLVVPMDGSHWFTMRSVVEKLILRGHEVVVVMPEVSWQLGRSLNCTVKTYSTSYTLEDLDREFKAFAHAQWKAQVRSIYSLLMGSYNDIFDLFFSNCRSLFKDKKLVEYLKESSFDAVFLDPFDNCGLIVAKYFSLPSVVFARGILCHYLEEGAQCPAPLSYVPRILLGFSDAMTFKERVRNHIMHLEEHLLCHRFFKNALEIASEILQTPVTEYDLYSHTSIWLLRTDFVLDYPKPVMPNMIFIGGINCHQGKPLPMEFEAYINASGEHGIVVFSLGSMVSEIPEKKAMAIADALGKIPQTVLWRYTGTRPSNLANNTILVKWLPQNDLLGHPMTRAFITHAGSHGVYESICNGVPMVMMPLFGDQMDNAKRMETKGAGVTLNVLEMTSEDLENALKAVINDKSYKENIMRLSSLHKDRPVEPLDLAVFWVEFVMRHKGAPHLRPAAHDLTWYQYHSLDVIGFLLAVVLTVAFITFKCCAYGYRKCLGKKGRVKKAHKSKTH

Molecule	target or system	assay	system	setting	how to read	quantity	value
TMPFLFCNVNDVCNFASRNDYSYWLHHHHHH (99mTc-labelled)		TLC	peptide, saline	8 h, 37 °C		radiochemical purity	> 90%
AAEDWCKKGDT			peptide, human polyclonal IgM RF STR	concentration not given, 5 µg/mL mAb II-481 coated, added: RF at 50% max binding concentration		inhibition	0%
N=C(N)NCCC[C@@H]1NC(=O)[C@H](CSC2CC(=O)N(CCNC(=O)CN3CCN(CC(=O)O)CCN(CC(=O)O)CCN(CC(=O)O)CC3)C2=O)NC(=O)[C@H](CCCCN)NC(=O)[C@@H](Cc2ccc(O)cc2)NC(=O)[C@H](CC(=O)O)NC(=O)CNC1=O (some centres unmarked) [gallium-68 labelled]			ICR mouse, female, blood	intravenous, 5 MBq, 1 to 120 min, two-compartment model		distribution rate constant	0.65 ± 0.11 min⁻¹
rnpA F107W (Bacillus subtilis)		NMR, measured: His3		25 °C, 20 ± 1 mM, unfolded state, no sulfate		pKa	5.71
N=C(N)NCCC[C@@H]1NC(=O)[C@H](CCCCNC(=S)Nc2ccc(CCCCCC(CN3CCN(CC(=O)O)CCN(CC(=O)O)CC3)N(CC(=O)O)CC(=O)O)cc2)NC(=O)[C@@H](Cc2ccc(O)cc2)NC(=O)[C@H](CC(=O)O)NC(=O)CNC1=O (some centres unmarked) [lutetium-177 labelled]			female athymic nu/nu mouse, U87MG xenograft, tumour	iv, 2.22 MBq, 1 h		tumour uptake	1.44 ± 0.61 %ID/g
SGVPDRF			peptide, human polyclonal IgM RF WEAK	concentration not given, 5 µg/mL mAb II-481 coated, added: RF at 50% max binding concentration		inhibition	72%
CC(C)[C@H](NC(=O)[C@@H]1CCCN1C(=O)[C@H](CCCNC(=N)N)NC(=O)[C@H](CS)NC(=O)[C@H](Cc1c[nH]c2ccccc12)NC(=O)[C@H](CCCNC(=N)N)NC(=O)[C@@H](Cc1ccccc1)NC(=O)[C@H](Cc1c[nH]cn1)NC(=O)[C@H](CCC(=O)O)NC(=O)[C@H](CS)NC(=O)[C@H](CS)NC(=O)[C@H](CCCCN)NC(=O)[C@@H]1CC(=O)N[C@@H](CCCNC(=N)N)C(=O)N[C@@H](C)C(=O)N[C@@H](CC(=O)O)C(=O)N[C@H](Cc2ccc(O)cc2)C(=O)N1)C(N)=O [technetium-99m labelled]			C57 mice, tumor	intravenous, 0.037 MBq, 24 h		tissue uptake	9.24 ± 3.63 %ID/g
TMPFLFCNVNDVCNFASRNDYSKKK (99mTc-labelled)		TLC	peptide, rat serum	8 h, 37 °C		radiochemical purity	> 90%
insulin lispro			healthy Japanese men, fasted, plasma	subcutaneous, 0.3 U/kg		AUC(0-t)	0.0123 ± 0.00145 µg·h/mL
Insulin human		ELISA	rat, brainstem	intranasal, 20 µg per nostril, 360 min		concentration	45.6 ± 7.2 pg/mg tissue
CARLSLSWRGLTLCPSK (68Ga-DOTA-labelled)	mouse VAP-1	ex vivo biodistribution	peptide, wild-type mouse, B16 melanoma xenograft, liver	60 min, added: 500-fold excess unlabelled DOTA-peptide		uptake	0.74 ± 0.08 SUV
insulin lispro			human, plasma	subcutaneous		tmax	46 min
CPSSSREKC (disulfide 1-9 (inferred)) (disulfide)		fluorescence imaging	Balb/c mice, nanoparticles	intratracheal, 24 h	relative to: initial fluorescence	retention in airways	> 90%
insulin aspart		measured: free drug	elderly type 1 diabetes, serum	subcutaneous, 0.2 U/kg, 12 h		AUC(0-t)	0.881 nM·h
insulin		shake-flask	1-octanol/acidified water	3 h		concentration in aqueous phase	892 µg/mL
B1 (UGT1A9)	CCc1ccc(O)cc1	steady-state kinetics		pH 7.4, 37 °C		Vmax/Km	75 µL/min/mg
pegcetacoplan		population PK model	human, GA or nAMD, serum	intravitreal		apparent clearance CL/F	0.325 L/day

Repeated from above:
Molecule	target or system	assay	system	setting	how to read	quantity	value
B1 (UGT1A9)	CCc1ccc(O)cc1	steady-state kinetics		pH 7.4, 37 °C		Vmax/Km	75 µL/min/mg
insulin lispro			human, plasma	subcutaneous		tmax	46 min
CPSSSREKC (disulfide 1-9 (inferred)) (disulfide)		fluorescence imaging	Balb/c mice, nanoparticles	intratracheal, 24 h	relative to: initial fluorescence	retention in airways	> 90%
